Measured values from different studies.
Each line is one published result; not all experiments were run side by side. Where no end group is shown, it is not given here.
BAK1 kinase domain 250-591: BAK1 kinase domain 250-591, pT446/pT449/pT450 (Arabidopsis thaliana, UniProt Q94F62)
Chain of UniProt Q94F62 (whole entry, looked up): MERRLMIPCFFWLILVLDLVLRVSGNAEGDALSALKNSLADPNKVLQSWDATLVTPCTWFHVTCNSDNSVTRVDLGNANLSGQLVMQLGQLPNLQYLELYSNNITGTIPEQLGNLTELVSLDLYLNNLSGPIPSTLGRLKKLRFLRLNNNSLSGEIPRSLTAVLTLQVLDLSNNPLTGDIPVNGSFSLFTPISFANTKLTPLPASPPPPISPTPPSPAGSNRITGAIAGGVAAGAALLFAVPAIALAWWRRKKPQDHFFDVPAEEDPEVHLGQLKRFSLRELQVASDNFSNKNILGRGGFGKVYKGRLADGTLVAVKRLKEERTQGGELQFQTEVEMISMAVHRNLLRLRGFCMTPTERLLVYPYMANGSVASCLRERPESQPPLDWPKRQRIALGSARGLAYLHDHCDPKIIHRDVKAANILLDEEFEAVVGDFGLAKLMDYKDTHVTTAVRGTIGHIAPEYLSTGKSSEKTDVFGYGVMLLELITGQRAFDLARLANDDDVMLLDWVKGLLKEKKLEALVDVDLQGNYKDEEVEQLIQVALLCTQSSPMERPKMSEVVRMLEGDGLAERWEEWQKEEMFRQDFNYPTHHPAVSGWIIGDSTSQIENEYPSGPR
RB1/E7 RB 55-787; E7 21-29 del245-267/del582-642: RB1/E7 RB ; E7 55-787 del245-267/del582-642, phosphorylated by Cdk2-CycA (human papillomavirus)
B1: avrPtoB 250-380 (Pseudomonas syringae, UniProt Q8RSY1); sequence looked up; chain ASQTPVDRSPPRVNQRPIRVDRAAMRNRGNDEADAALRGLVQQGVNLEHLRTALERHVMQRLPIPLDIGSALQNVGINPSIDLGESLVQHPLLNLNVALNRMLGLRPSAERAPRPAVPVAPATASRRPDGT
B2: efb Efb-C domain 101-164 N138A (Staphylococcus aureus, UniProt A0A0H2XIH9); chain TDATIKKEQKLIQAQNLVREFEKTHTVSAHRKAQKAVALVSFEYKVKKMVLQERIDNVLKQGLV
B3: avrPtoB 250-359 (Pseudomonas syringae, UniProt Q8RSY1); chain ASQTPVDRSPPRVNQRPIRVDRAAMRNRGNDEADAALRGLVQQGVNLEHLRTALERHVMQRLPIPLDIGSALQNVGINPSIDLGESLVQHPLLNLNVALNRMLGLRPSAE
Chain of UniProt P80200 (whole entry, looked up): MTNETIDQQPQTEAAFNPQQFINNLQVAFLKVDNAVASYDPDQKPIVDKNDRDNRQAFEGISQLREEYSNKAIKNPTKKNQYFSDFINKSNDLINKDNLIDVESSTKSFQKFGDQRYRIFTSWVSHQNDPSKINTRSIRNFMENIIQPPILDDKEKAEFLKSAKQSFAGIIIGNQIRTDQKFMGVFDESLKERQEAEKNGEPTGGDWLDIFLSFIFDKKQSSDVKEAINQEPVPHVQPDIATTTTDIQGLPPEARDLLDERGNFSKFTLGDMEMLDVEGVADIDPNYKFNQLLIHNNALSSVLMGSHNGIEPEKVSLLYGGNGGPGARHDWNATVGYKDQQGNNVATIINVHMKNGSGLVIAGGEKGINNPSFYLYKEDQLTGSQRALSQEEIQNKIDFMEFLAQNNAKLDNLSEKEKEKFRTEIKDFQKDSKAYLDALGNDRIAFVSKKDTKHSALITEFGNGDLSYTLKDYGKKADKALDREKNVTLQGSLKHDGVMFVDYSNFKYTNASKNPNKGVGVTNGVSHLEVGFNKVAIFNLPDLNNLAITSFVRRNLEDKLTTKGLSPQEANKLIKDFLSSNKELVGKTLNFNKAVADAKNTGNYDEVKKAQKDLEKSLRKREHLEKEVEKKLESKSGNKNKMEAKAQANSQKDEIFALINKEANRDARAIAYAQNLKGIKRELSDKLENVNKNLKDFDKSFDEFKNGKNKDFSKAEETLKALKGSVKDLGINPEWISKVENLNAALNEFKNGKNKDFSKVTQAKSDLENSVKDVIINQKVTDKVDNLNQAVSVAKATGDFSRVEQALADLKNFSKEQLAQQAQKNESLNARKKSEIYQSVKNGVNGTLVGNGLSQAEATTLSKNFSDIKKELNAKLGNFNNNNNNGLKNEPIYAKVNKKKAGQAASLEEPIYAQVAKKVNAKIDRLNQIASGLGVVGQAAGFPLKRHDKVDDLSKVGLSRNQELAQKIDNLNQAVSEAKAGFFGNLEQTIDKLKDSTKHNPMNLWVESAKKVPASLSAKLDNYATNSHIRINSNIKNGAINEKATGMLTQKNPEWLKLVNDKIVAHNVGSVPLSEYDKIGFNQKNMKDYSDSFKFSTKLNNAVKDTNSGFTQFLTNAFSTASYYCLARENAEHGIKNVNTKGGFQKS
Chain of UniProt P01024 (whole entry, looked up): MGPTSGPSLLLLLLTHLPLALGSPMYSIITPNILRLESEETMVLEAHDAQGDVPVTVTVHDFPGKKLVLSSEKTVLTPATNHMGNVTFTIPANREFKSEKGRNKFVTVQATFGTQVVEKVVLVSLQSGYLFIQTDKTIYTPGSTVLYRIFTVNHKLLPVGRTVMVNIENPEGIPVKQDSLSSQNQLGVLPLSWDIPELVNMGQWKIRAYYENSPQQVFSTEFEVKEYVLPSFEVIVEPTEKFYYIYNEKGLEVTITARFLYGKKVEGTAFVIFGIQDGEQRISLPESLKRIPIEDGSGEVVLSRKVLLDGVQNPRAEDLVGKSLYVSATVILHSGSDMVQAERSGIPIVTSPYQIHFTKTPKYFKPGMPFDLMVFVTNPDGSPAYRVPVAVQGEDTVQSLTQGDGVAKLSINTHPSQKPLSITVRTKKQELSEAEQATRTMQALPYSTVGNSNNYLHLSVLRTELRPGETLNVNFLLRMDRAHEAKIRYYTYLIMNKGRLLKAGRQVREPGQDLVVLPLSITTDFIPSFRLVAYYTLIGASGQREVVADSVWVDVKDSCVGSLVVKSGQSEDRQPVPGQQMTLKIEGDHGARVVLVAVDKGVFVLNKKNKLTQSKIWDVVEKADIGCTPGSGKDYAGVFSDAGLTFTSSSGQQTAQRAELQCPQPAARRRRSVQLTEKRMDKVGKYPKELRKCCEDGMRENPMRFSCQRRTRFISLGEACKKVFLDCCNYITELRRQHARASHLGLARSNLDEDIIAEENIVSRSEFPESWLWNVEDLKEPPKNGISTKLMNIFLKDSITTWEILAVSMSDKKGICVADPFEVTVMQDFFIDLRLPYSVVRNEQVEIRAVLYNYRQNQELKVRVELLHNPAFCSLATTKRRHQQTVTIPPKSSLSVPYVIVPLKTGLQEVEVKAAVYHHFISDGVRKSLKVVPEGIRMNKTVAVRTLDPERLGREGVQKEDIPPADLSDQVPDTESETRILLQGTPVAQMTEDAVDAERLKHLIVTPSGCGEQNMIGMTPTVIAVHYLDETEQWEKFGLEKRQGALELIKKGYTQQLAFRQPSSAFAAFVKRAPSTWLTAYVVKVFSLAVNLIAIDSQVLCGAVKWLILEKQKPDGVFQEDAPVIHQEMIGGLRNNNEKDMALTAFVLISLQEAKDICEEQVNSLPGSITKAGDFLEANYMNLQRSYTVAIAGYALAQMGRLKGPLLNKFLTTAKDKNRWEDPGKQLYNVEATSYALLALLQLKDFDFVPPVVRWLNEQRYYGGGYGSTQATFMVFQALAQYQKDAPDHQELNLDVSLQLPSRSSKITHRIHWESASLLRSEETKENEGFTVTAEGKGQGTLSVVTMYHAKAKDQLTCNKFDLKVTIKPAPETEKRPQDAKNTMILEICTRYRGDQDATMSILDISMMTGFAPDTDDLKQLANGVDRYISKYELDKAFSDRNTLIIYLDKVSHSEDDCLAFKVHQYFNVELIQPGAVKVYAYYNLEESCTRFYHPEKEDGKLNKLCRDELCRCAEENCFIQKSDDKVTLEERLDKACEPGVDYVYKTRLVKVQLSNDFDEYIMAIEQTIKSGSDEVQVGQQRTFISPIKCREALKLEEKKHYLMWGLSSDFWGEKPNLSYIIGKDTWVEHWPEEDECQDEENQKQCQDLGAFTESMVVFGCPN
Chain of UniProt Q13761 (whole entry, looked up): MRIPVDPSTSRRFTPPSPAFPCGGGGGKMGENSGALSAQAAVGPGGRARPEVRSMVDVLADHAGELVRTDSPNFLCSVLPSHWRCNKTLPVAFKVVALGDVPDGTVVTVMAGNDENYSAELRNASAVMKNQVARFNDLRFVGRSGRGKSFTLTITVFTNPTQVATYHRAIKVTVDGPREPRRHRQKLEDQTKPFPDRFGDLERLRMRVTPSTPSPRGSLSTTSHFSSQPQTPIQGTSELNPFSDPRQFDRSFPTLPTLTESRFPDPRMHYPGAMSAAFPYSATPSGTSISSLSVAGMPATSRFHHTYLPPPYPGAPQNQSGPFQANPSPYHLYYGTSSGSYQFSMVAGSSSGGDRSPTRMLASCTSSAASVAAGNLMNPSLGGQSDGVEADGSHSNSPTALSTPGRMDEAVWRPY
Chain of UniProt O60602 (whole entry, unmodified, looked up): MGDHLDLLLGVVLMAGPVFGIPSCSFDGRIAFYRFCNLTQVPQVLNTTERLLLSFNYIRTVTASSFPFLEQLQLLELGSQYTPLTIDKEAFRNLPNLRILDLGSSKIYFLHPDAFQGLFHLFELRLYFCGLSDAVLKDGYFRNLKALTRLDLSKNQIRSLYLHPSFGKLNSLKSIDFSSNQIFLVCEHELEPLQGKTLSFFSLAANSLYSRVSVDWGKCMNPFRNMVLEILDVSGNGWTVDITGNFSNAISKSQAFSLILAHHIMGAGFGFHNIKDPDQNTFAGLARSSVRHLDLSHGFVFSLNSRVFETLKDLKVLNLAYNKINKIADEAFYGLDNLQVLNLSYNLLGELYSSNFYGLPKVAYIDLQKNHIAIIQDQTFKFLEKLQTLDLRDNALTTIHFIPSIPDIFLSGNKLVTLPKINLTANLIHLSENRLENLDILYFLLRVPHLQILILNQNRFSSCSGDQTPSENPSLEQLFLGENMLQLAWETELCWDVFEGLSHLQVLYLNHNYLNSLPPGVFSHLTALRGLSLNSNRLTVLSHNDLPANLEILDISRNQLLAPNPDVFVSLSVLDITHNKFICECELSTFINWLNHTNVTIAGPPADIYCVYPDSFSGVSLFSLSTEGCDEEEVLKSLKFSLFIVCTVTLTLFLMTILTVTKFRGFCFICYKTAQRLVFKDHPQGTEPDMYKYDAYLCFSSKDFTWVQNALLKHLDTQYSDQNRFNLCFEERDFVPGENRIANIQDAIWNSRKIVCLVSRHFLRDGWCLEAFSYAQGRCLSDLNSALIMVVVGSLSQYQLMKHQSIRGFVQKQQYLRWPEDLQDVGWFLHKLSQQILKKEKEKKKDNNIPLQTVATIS

`B1 (avrPtoB 250-380)`: binding “binds” (BAK1 kinase domain 250-591; SEC).
`RmS-3, glycosylated (Rhipicephalus microplus)` has a protease inhibition of less than 20% (F10 factor Xa (Bos taurus); chromogenic substrate hydrolysis, inhibitor; 1 µM).
For `fliC del126-128/T129G/Q130G/K135E (Salmonella enterica)`, “decrease in NF-κB reporter signaling” read 800 fold (TLR5 (Homo sapiens, UniProt O60602); NF-κB luciferase reporter; HEK293; EC50 ratio; reference: CBLB502 EC50, higher = weaker activity).
`{TMR}-QDDYLWGLEAGEGISDLFD (E2F2 409-428 (Homo sapiens); N-terminal TMR label; TMR = tetramethylrhodamine dye)` has a Kd of 16 nM (RB1/E7 RB 55-787; E7 21-29 del245-267/del582-642; fluorescence polarisation; peptide; pH 8.0, NaCl 100 mM, two-site fit, together with: E7 LxCxE peptide 10 µM).
`B2 (efb Efb-C domain 101-164 N138A)` gave a relative affinity of greater than 20 fold (iC3b C3 fragments 23-667 (Homo sapiens, UniProt P01024); SPR; reference: C3b, higher = tighter binding than C3b).
`RUNX3 (Homo sapiens, UniProt Q13761)` gave a half-life of 1.5 h (CagA (Helicobacter pylori, UniProt P80200); cycloheximide chase; COS-7; co-expressed with CagA, together with: cycloheximide 100 µg/mL).
`SipD fragment C244S/S331C, MTSL spin label at 331 (Salmonella) (sequence not shown)` — result for binding: “binds” (PrgI fragment (Salmonella); NMR paramagnetic relaxation enhancement).
`LDYHFGLEEGEGIRDLFD (E2F1 409-426 (Homo sapiens, UniProt Q01094))` gave a Kd of 340 nM (RB1/E7 RB 55-787; E7 21-29 del245-267/del582-642; ITC; pH 8.0, NaCl 100 mM, together with: LxCxE peptide 100 µM).
For `NLWAAQRYGRELRRMSDEFVDSFKK (BAD BH3 domain)`, the Kd was 33100 nM (M11 1-136 (UniProt P89884); ITC; peptide; 14 °C, single-site model).
`RmS-17, glycosylated (Rhipicephalus microplus)` has a protease inhibition of less than 20% (kallikrein (Sus scrofa); chromogenic substrate hydrolysis, inhibitor; 1 µM).
`melittin`: “free energy of partitioning” -6.1 kcal/mol (CD titration; POPC 100% POPG 0% vesicles; pH 7.0, 40 °C).
For `RmS-6, glycosylated (Rhipicephalus microplus)`, the protease inhibition was less than 20% (kallikrein (Sus scrofa); chromogenic substrate hydrolysis, inhibitor; 1 µM).
`B3 (avrPtoB 250-359)` — result for “molecule per partner”: 1 (BAK1 kinase domain 250-591; crystal structure).

Repeated from above:
`RmS-17, glycosylated (Rhipicephalus microplus)` has a protease inhibition of less than 20% (kallikrein (Sus scrofa); chromogenic substrate hydrolysis, inhibitor; 1 µM).
`B3 (avrPtoB 250-359)` — result for “molecule per partner”: 1 (BAK1 kinase domain 250-591; crystal structure).
